Results pooled from the literature.
Protocols differ between the studies behind these lines. “And” joins repeats or separate records; there may be more than shown. ± marks the error that the study gave.
PIH1D1: PIH1D1 1-180 (Homo sapiens, UniProt Q9NWS0)
UniProt Q9NWS0, sequence (whole entry, unmodified, looked up): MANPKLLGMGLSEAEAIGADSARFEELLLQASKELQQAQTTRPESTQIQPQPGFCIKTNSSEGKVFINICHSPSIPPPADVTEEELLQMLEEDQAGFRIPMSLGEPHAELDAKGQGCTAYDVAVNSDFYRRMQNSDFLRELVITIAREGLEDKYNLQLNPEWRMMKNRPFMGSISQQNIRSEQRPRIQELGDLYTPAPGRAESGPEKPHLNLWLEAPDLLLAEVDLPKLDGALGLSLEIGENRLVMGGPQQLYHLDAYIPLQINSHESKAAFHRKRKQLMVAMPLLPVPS
B1: SSR1 mature protein (Canis lupus familiaris, UniProt P16967); sequence looked up; chain GPGGSLVAAQDLTEDEETVEDSIIEDEDDEAEVEEDEPTDLAEDKEEEDVSGEPEASPSADTTILFVKGEDFPANNIVKFLVGFTNKGTEDFIVESLDASFRYPQDYQFYIQNFTALPLNTVVPPQRQATFEYSFIPAEPMGGRPFGLVINLNYKDLNGNVFQDAVFNQTVTIIEREDGLDGETIFMYMFLAGLGLLVVVGLHQLLESRKRKRPIQKVEMGTSSQNDVDMSWIPQETLNQINKASPRRLPRKRAQKRSVGSDE
B2: BAK1 22-186 G126R (Homo sapiens, UniProt Q16611); chain ASEEQVAQDTEEVFRSYVFYRHQQEQEAEGVAAPADPEMVTLPLQPSSTMGQVGRQLAIIGDDINRRYDSEFQTMLQHLQPTAENAYEYFTKIATSLFESGINWRRVVALLGFGYRLALHVYQHGLTGFLGQVTRFVVDFMLHHCIARWIAQRGGWVAALNLGNG
B3: LMNA 389-572 (Homo sapiens, UniProt P02545-2); sequence looked up; chain LSPSPTSQRSRGRASSHSSQTQGGGSVTKKRKLESTESRSSFSQHARTSGRVAVEEVDEEGKFVRLRNKSNEDQSMGNWQIKRQNGDDPLLTYRFPPKFTLKAGQVVTIWAAGAGATHSPPTDLVWKAQNTWGCGNSLRTALINSTGEEVAMRKLVRSVTVVEDDEDEDGDDLLHHHHVSGSRR
B4: ING2 189-262 M219A (Arabidopsis thaliana, UniProt B3H615); sequence looked up; chain NRKDLMPIEEQPIDPNEPTYCVCHQVSFGDAIACDNENCQGGEWFHYTCVGLTPETRFKGKWYCPTCRLLPQSH
B5: ING2 189-262 Y208A (Arabidopsis thaliana, UniProt B3H615); sequence looked up; chain NRKDLMPIEEQPIDPNEPTACVCHQVSFGDMIACDNENCQGGEWFHYTCVGLTPETRFKGKWYCPTCRLLPQSH
B6: human DDX5; sequence looked up; chain MSGYSSDRDRGRDRGFGAPRFGGSRAGPLSGKKFGNPGEKLVKKKWNLDELPKFEKNFYQEHPDLARRTAQEVETYRRSKEITVRGHNCPKPVLNFYEANFPANVMDVIARQNFTEPTAIQAQGWPVALSGLDMVGVAQTGSGKTLSYLLPAIVHINHQPFLERGDGPICLVLAPTRELAQQVQQVAAEYCRACRLKSTCIYGGAPKGPQIRDLERGVEICIATPGRLIDFLECGKTNLRRTTYLVLDEADRMLDMGFEPQIRKIVDQIRPDRQTLMWSATWPKEVRQLAEDFLKDYIHINIGALELSANHNILQIVDVCHDVEKDEKLIRLMEEIMSEKENKTIVFVETKRRCDELTRKMRRDGWPAMGIHGDKSQQERDWVLNEFKHGKAPILIATDVASRGLDVEDVKFVINYDYPNSSEDYIHRIGRTARSTKTGTAYTFFTPNNIKQVSDLISVLREANQAINPKLLQLVEDRGSGRSRGRGGMKDDRRDRYSAGKRGGFNTFRDRENYDRGYSSLLKRDFGAKTQNGVYSAANYTNGSFGSNFVSAGIQTSFRTGNPTGTYQNGYDSTQQYGSNVPNMHNGMNQQAYAYPATAAAPMIGYPMPTGYSQ
B7: ING2 189-262 E205A (Arabidopsis thaliana, UniProt B3H615); sequence looked up; chain NRKDLMPIEEQPIDPNAPTYCVCHQVSFGDMIACDNENCQGGEWFHYTCVGLTPETRFKGKWYCPTCRLLPQSH
UniProt P20936, sequence (whole entry, unmodified, looked up): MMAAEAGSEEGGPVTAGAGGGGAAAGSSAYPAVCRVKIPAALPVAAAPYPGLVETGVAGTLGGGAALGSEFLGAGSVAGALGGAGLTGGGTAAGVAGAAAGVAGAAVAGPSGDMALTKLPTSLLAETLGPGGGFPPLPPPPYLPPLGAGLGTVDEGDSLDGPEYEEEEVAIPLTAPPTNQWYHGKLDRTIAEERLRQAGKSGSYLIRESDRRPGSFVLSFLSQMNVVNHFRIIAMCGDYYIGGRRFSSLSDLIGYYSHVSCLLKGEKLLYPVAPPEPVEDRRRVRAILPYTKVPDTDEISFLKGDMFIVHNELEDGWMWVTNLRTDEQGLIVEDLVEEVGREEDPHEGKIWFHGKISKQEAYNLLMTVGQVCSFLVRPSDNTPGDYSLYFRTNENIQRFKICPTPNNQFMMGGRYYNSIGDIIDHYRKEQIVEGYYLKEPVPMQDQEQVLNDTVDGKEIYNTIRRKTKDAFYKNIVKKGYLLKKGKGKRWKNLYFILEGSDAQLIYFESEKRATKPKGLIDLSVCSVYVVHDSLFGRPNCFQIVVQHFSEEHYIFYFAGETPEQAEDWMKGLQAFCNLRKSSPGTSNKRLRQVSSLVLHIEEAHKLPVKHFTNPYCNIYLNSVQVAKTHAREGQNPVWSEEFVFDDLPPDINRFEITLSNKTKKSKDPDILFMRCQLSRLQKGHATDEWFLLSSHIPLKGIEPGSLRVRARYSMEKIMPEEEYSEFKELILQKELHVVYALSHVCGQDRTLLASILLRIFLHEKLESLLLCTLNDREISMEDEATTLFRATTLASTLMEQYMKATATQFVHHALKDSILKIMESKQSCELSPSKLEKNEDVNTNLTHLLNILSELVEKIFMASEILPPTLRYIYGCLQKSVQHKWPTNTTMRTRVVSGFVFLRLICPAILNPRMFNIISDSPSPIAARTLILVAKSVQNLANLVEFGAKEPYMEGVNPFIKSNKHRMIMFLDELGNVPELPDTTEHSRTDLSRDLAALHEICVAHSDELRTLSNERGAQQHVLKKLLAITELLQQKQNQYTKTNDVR
UniProt P23438, sequence (whole entry, looked up): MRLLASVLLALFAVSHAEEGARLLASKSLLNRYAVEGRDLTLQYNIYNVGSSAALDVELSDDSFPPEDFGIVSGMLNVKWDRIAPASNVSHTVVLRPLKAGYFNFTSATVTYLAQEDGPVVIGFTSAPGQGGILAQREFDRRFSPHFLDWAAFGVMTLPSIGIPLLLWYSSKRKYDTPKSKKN
UniProt Q16181, sequence (whole entry, looked up): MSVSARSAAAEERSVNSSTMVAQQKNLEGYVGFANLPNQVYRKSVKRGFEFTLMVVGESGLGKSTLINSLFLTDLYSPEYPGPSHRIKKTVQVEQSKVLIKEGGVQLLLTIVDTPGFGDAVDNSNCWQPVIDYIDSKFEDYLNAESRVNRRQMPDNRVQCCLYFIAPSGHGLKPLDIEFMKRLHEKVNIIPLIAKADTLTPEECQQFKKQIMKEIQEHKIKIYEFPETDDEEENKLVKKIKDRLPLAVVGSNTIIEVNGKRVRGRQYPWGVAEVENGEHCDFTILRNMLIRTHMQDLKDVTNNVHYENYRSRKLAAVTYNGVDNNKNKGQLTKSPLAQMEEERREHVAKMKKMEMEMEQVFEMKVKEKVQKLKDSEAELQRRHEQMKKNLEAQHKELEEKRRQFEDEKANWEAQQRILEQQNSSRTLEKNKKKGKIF
UniProt Q6ZJM9, sequence (whole entry, looked up): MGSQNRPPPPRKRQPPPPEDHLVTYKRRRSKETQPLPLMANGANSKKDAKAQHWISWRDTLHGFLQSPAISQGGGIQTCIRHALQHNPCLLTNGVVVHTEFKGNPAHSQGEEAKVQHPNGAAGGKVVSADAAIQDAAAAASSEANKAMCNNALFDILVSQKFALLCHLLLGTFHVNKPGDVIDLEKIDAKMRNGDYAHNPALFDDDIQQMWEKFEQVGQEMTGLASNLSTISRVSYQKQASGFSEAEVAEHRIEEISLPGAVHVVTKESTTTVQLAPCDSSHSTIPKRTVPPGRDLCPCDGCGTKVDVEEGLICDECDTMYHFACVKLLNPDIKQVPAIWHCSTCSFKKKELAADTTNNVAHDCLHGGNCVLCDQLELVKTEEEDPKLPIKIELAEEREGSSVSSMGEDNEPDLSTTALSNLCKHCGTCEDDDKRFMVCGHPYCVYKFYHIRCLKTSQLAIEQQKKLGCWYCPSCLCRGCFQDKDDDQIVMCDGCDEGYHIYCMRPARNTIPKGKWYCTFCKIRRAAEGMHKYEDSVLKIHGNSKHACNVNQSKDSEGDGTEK
UniProt Q9HDC5, sequence (whole entry, looked up): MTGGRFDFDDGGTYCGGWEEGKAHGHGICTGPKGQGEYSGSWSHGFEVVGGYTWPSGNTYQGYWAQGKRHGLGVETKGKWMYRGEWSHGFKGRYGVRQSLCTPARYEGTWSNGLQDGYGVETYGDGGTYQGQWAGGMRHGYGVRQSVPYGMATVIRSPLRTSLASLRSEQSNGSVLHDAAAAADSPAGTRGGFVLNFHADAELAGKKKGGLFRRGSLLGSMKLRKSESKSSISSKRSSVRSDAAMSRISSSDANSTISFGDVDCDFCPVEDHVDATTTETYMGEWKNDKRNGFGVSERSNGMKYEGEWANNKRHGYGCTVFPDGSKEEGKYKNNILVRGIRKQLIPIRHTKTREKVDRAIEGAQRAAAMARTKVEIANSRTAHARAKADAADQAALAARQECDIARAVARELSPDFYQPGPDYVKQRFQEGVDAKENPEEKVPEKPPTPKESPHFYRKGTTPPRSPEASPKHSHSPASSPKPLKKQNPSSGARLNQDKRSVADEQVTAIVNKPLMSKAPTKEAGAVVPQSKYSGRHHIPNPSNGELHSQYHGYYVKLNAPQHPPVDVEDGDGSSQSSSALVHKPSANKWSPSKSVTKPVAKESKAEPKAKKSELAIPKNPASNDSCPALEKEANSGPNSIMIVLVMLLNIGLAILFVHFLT
UniProt Q96B97, sequence (whole entry, looked up): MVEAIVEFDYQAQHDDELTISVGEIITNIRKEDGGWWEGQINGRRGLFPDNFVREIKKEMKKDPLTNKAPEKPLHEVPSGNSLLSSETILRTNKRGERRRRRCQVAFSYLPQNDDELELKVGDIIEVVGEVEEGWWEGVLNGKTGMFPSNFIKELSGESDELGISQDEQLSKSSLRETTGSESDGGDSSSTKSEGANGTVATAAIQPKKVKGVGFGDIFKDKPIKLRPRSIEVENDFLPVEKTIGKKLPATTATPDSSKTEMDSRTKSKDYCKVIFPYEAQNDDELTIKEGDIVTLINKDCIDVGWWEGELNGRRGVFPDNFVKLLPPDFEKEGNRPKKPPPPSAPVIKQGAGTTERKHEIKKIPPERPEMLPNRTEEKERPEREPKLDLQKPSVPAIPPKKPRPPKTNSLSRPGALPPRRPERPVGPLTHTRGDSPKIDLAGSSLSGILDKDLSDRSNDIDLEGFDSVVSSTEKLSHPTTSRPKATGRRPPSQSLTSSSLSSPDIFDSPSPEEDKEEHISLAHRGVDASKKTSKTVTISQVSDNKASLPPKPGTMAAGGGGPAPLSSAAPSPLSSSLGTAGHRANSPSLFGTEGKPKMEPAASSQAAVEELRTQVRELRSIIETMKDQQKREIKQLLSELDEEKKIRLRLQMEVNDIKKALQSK
UniProt Q8H159, sequence (whole entry, looked up): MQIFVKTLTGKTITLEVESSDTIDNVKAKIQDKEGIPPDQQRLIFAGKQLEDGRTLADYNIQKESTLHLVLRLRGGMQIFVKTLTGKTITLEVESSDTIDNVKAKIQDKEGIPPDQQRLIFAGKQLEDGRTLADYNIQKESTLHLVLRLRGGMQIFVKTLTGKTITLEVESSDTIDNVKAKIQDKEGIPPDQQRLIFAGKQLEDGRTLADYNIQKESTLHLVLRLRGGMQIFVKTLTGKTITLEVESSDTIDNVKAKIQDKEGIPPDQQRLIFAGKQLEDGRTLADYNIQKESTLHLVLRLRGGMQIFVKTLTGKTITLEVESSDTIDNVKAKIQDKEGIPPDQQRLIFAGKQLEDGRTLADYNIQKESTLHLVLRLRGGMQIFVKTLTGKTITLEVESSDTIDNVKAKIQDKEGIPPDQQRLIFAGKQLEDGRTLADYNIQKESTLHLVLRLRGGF
UniProt O95619, sequence (whole entry, looked up): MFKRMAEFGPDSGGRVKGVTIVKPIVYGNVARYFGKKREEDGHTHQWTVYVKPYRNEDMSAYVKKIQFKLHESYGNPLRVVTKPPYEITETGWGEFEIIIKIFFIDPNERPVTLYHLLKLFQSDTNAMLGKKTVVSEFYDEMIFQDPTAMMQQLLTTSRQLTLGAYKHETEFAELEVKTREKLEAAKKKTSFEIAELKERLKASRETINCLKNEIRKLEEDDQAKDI
UniProt Q8RWU7, sequence (whole entry, looked up): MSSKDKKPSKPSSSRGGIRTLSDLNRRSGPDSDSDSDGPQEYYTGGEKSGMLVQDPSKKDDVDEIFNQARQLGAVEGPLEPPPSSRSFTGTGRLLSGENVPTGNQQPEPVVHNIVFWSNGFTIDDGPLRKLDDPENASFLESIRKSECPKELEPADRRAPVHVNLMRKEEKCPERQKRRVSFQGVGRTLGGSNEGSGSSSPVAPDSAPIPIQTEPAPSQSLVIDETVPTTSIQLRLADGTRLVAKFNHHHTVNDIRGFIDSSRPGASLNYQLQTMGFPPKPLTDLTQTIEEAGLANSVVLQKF

`SQAPARPPKPRPRRTAY (Cbl-b residues 899-915)` — result for “molecule per partner”: 0.9 ± 0.2 (SH3KBP1 1-58 (Homo sapiens, UniProt Q96B97); ITC; peptide; 25 °C).
`EERIFRRTGGLFGQVD (CACNA1S residues 1594-1609 (Oryctolagus cuniculus))` — result for “molecule per partner”: 0.9 ± 0.1 (JPH1 1-442 (Homo sapiens, UniProt Q9HDC5); ITC; peptide).
Under “molecule per partner”, `ASCC3 C-degron` is recorded as 0.76 (APPBP2/ELOB/ELOC C54A/H89A (Homo sapiens); ITC).
`GRIN2A fragment S1459A (sequence not shown)` — result for “molecule per partner”: 1.1 (SNX27 fragment (Rattus norvegicus); ITC).
For `DPSDYAEPMDAVVKPRNEEENIYSVPHDS (ARHGAP35 residues 1083-1111; pY1087/pY1105, N-acetyl, C-amide)`, “molecule per partner” read 1.45 and 1.36 and 1.41 (RASA1 174-444 C236S/C261S/C372S/C402S (Homo sapiens, UniProt P20936); ITC; peptide).
For `RPNESDSDDLDDY (ECD 499-510 (Homo sapiens); pS505)`, “molecule per partner” read 0.7 (PIH1D1; ITC; peptide).
`B1 (SSR1 mature protein)`: “molecule per partner” 1 molar ratio (SSR2 mature, two N-linked glycans (Canis lupus familiaris, UniProt P23438); UV absorption of separated subunits).
`FGA (Homo sapiens, UniProt P02671)` — result for cross-linked residues: “K476 to K766” (BMP1 (Homo sapiens, UniProt P13497); cross-linking MS; with: DSSO).
`ARKSTGGKAPRKQ (histone H3 peptide 8-20 (UniProt P68431); K9ac; sequence looked up)`: “molecule per partner” 0.98 ± 0.09 (YEATS4 19-159 (Homo sapiens, UniProt O95619); ITC; peptide).
`YAGSDSDLDSDDEFVPY (TELO2 483-497 (Homo sapiens); pS487)`: “molecule per partner” 0.9 (PIH1D1; ITC; peptide).
`SEPTIN7 (Homo sapiens, UniProt Q16181)`: “molecule per partner” 1 (SEPTIN6 (Homo sapiens, UniProt Q14141); co-sedimentation).
`ARTKQTARKSTG (histone H3 peptide 1-12; K4me1)` — result for “molecule per partner”: 1.1 (Ehd3 417-547 (Oryza sativa, UniProt Q6ZJM9); ITC; peptide).
`B2 (BAK1 22-186 G126R)` — result for “molecule per partner”: 1 (MCL1 lacking N-terminus and transmembrane (Homo sapiens); SEC-MALS).
`B3 (LMNA 389-572)`: “molecule per partner” 1 (SREBF1 227-487 (Homo sapiens, UniProt P36956); ITC).
With `colistin` the MIC was at most 0.5 mg/L (Enterobacter cloacae; broth microdilution; clinical isolate RKI-No_215/15).
Under “molecule per partner”, `YAGSDSDLDSDDEFVPY (TELO2 483-497 (Homo sapiens); pS491)` is recorded as 0.8 (PIH1D1; ITC; peptide).
Under “molecule per partner”, `ING1 PHD finger (Arabidopsis thaliana)` is recorded as 1.06 (histone H3 1-10, K4me3; ITC).
Under “molecule per partner”, `PUX2 (Arabidopsis thaliana, UniProt Q9ZU93)` is recorded as 0.91 ± 0.1 (UBQ10 mature (Arabidopsis thaliana, UniProt Q8H159); ITC; 25 °C).
`B4 (ING2 189-262 M219A)`: “molecule per partner” 0.97 ± 0.11 (histone H3 1-10, K4me3; ITC).
`DLDSDDEY (TELO2 488-494 (Homo sapiens); pS491)` — result for “molecule per partner”: 0.7 (PIH1D1 51-180 K113A (Homo sapiens, UniProt Q9NWS0); ITC; peptide).
`B5 (ING2 189-262 Y208A)` — result for “molecule per partner”: 1.1 ± 0.04 (histone H3 1-10, K4me3; ITC).
Under “log2 fold change”, `B6 (human DDX5)` is recorded as -1.34 (PP6C (human); co-immunoprecipitation, IP-MS; CYB5R4 knockout cells; concentration not given; reference: CYB5R4 knockout over parental).
`B7 (ING2 189-262 E205A)`: “molecule per partner” 1.17 ± 0.02 (histone H3 1-10, K4me3; ITC).
`human nucleophosmin`: “log2 fold change” -0.38 (CYB5R4 knockout human cells; PP6 interaction, 3xFLAG-PP6C IP-MS; concentration not given; reference: CYB5R4 KO over parental).
`TERLVLRLNRKKKKVSWKDGTVDNE (INH3 27-51 (Arabidopsis thaliana, UniProt Q8S8F7))` — result for “molecule per partner”: 1.2 ± 0.1 (PUX4 (Arabidopsis thaliana, UniProt Q8RWU7); ITC; peptide).
`ING2 PHD finger (Arabidopsis thaliana)`: “molecule per partner” 1.09 ± 0.02 (H3 residues 1-10, K4me2; ITC).

Repeated from above:
`B1 (SSR1 mature protein)`: “molecule per partner” 1 molar ratio (SSR2 mature, two N-linked glycans (Canis lupus familiaris, UniProt P23438); UV absorption of separated subunits).
`FGA (Homo sapiens, UniProt P02671)` — result for cross-linked residues: “K476 to K766” (BMP1 (Homo sapiens, UniProt P13497); cross-linking MS; with: DSSO).
`ARKSTGGKAPRKQ (histone H3 peptide 8-20 (UniProt P68431); K9ac; sequence looked up)`: “molecule per partner” 0.98 ± 0.09 (YEATS4 19-159 (Homo sapiens, UniProt O95619); ITC; peptide).
